Measured values collected from several papers.
Every numbered part comes from another study and shows a few of its results, in no order. Changes are numbered by the printed parent chain.

Sample 1 — target: CEP164, C-terminal peptide (human); method: DHFR complementation, deep sequencing; medium: yeast; baseline: wild type; reading: higher = weaker binding
Notes: single substitutions, model-inferred values
Starting sequence: PDZK1, PDZ domain 2 (human); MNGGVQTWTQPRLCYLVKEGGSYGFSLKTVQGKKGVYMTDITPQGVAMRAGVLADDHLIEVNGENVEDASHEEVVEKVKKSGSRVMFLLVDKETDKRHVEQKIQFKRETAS; partner HNRVKVYRF
Change | binding free energy change [kcal/mol]
Y23F | -0.145
V61R | 1.44
I103D | -0.0914
K34M | 0.357
I41N | 1.77
A47H | 0.975
L13A | -0.0628
I103P | -0.0862
Q10N | 0.0304
M48E | -0.279
K106N | -0.0927
W8S | -0.0364
D56I | 1.26
K96E | -0.0695
L88W | 0.0959
N65T | 0.424

Sample 2 — method: RNA Bind-n-Seq; form: RNA; medium: in vitro; tested at: 365 nM; baseline: no-protein control; reading: higher = stronger binding
Target: RNA binding protein fox-1 homolog 2, RRM domain, GST-SBP tag (RBFOX2, Homo sapiens, UniProt O43251-10, residues 100-194)
Notes: natural RNA segment, single round, ends assumed
All sequences stand within: GGGAGUUCUACAGUCCGACGAUC … UGGAAUUCUCGGGUGCCAA
Residues (chain): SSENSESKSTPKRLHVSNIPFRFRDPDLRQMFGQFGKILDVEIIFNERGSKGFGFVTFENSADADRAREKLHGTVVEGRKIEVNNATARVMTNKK
Strand | RBNS enrichment (R)
CUUUUGUUUCCUGUAAACAGUGGUUGCAUGUGUAGGAAGUAACAAGCGAGUAUUCAGAUCAUACGAGGAGGCGUUCCUCGGUGCAUGACGGUCAGAUGGCCAUUUAUCAG | 42.8
GCCUUGAUCUCUCCAUGCCCCACCUUAAGUGGUAAGCAUGUUUAAUUAUCAAAGGCCCCAUUUGUCAGGGGUGAGAGAAAAGUCAAAAGAUAAAUUGGGGCCUUGUAAAA | 0.619
GCACCUUGUAAUCAUCAAUACAUCCACCAAAAAUAUAUAAUGUACCAUAUAUAUUAAUAGUCAACAAAUACUCAGAUAUUCUAAGGUCAAUGCCAUUAUUUGAUUAUACC | 1.36
CUUCCCUUUCUCAGUUCCUGACCUUCCUCUGAGCCCUUGAGACACUUUGUAAUGCUCUUUUGUAACUAUCGACAAAGGUGUGGGGAAGCUGAGGUCUAGGUCUUCUUAAA | 0.343
CGAGUCUCCUAAGUCCCCGUCAGUGUGGUUUUCACCACAGGACUGUCUCUUGUCGUUUUCCCCUAAUGCCUUCUCCUGCCUUUUCUGUGCCUAGUUUUUGGCUCUUCACA | 0.517
UUGUAACAAUUUAUGUUUUACAGUUCCUUUUACAAAGUGUAUUUUUACUCCAGUGUGUCUUGGCUUACACAAUUUAACAGCUUUCUGAUUUUAUUCACAUACAGUGAUGA | 0.628
GCAGGGAAGUGUUGUGGCCGGCUGGACUGUGCCUGCUUUAGAGUAGACAGAGAGGGACGUGGGCAUGUUUUAUUUGGAGGGAUGUUUAUUCCCUGAGAUUACAGAAGUAC | 2.43
UUUUCUACAGAAGUCCAGCCCAGAGUCCCCACUUUGCUAGUGCUGCCUGGCUGCCACCGCCUAACGCUCUGAACCACCACCCCAGGUUUAUGUAUAUAUAAAUACUUUAU | 0.632
AGGGAUACAUACAGUUGCAUGUCUGCUUCAAUUAGCAGAUGCUGCAGAUCCACACAGUGUAAAAUACUAUACAACCAAACAUCCGCCUUUACAGGUCGUUAUUCUUCUAA | 1.45
CUGCUACCACAACCCCAGGCGGGUGUCAACACCAGCAAAUGCUGUGUUUGCAGCAUGCCCAAGAUGACCCUGCUCCUGAACCUCUACCUAGCCACUGGUAGAGAGAGGAG | 0.245
GGGUGACUUGUGGUUGUAGAGUUGGCCAUCAUUCUGCACUGUUGAUAGCUGUCUGCUCCAGUUUCUGGUCUUUGGUAUACUCAGUGUGGCCCGGUGAUGAAGGCUUUCUA | 0.509
UGGUACCGGGGGUGGGGCUGUCACAACUGAAAACCCUCCAGCUGGAAUGGACAAUGUGCCCCCAACACCAACUCCUCCUGCCCUCCACUGUGGUAGAGUCUGGGACCAAC | 0.417

Sample 3 — method: protein binding microarray; form: double-stranded DNA, one strand shown; medium: in vitro; tested at: not given; baseline: not given; reading: higher = stronger binding
Target: Histone acetyltransferase KAT6A, winged helix 1, GST fusion (KAT6A, Homo sapiens, UniProt Q92794, residues 1-85)
Notes: 8-mer, flanks averaged, mean of 2 arrays, mostly near background
Target sequence (chain): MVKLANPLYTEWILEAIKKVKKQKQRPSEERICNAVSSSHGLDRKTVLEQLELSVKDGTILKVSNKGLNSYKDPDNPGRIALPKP
Strand | E-score
GTGGAGAA | -0.195
CAAATCGA | -0.239
ATAGACCC | 0.0812
CAAACCAA | -0.272
CTAAACAC | -0.0366
CCGCCGTC | 0.437
GCTCCTCA | -0.00539
CTCTATGA | -0.129
CGGATTTA | 0.19
CCTCGTCA | -0.124
CTAGGAGA | -0.169
ATCTCACG | 0.0595
AGGGAGTC | -0.216
GTTGTGTA | -0.0857
ATACCTAG | -0.0669
ACAACTGT | -0.113
GGGGAACA | -0.149
ATAACACA | -0.0965
AAGAGGTC | -0.0821
AGCAGACA | -0.321
AGACTTGA | -0.263
CCTACGAC | -0.254
AATCAACG | -0.122
TCATGACA | -0.0657
CCCGTTCC | 0.0764

Sample 4 — target: FOS, bZIP domain (human); method: DHFR protein complementation; medium: yeast; baseline: wild-type JUN-FOS pair; reading: higher = stronger binding
Notes: single substitutions, most at no-binding floor
Starting sequence: JUN, bZIP domain (human); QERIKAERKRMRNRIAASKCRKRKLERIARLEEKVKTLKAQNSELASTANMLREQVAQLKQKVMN; partner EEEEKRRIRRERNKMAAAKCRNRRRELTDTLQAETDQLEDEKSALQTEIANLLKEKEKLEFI
Change | binding fitness
I28K | -0.19 natural log
M51L | 0.0185 natural log
M51G | -0.155 natural log
L52V | -0.742 natural log
R30Q | 0.146 natural log
V35K | -0.0175 natural log
A46V | -0.163 natural log
E54K | -0.168 natural log
K34L | -0.153 natural log
K39M | -0.678 natural log
L38W | -1.33 natural log
K39P | -1.31 natural log
A49E | -1.1 natural log
L38T | -1.16 natural log
I28C | -0.283 natural log
K34G | -0.0726 natural log
S43Y | -0.154 natural log
A49S | -0.741 natural log
A40C | -0.174 natural log
R53D | -1.08 natural log
A29Y | -0.24 natural log
S43N | -0.0406 natural log
V35F | -0.524 natural log
E32Q | -0.0894 natural log
R30F | 0.0655 natural log

Sample 5 — target: CCNF, cyclin fold, Cln2 fusion (human); method: yeast growth competition, sequencing; medium: yeast; notes: strong parent motif; baseline: not given; reading: higher = stronger binding
Starting sequence: E2F1 docking peptide (human); PPVKRRLDFETDH
Change | normalised enrichment score
F9Y | 6.42
L7S | -0.102
L7D | -0.118
R5Q | 1.79
L7P | 0.0789
R5Y | 0.365
V3G | 6.83
K4P | 6.16
F9I | 4.73
E10C | 7.92
V3P | 7.63
F9P | 1.08
D12E | 7.29
F9A | 0.666
E10N | 8.12
D8V | 6.1
P2D | 7.26
R5S | -0.096
R6H | 6.76
L7V | 3.53
D12F | 7.97
D12P | 7.77
P2K | 8.37

Sample 6 — method: DHFR PCA, deep sequencing; medium: yeast; added: (+)-ABA 58 µM; baseline: wild-type fitted maximum; reading: higher = stronger binding
Target: ABI1, truncated, D143A, DHFR fusion (Arabidopsis thaliana)
Notes: methotrexate growth selection, single substitutions
Starting sequence: PYL1, truncated, DHFR fusion (Arabidopsis thaliana); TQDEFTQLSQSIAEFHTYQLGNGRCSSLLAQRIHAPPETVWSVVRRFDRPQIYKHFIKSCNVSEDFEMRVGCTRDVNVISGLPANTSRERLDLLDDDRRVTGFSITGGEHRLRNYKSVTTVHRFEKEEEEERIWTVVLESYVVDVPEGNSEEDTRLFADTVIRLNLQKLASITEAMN
Change | relative binding score [%]
C72K | 56.6
S9L | 71.7
T160G | 53.9
Y53N | 1.89
L29A | 44.1
L169M | 35.5
V76N | 32.2
R32D | 56.4
Q19F | 76.3
Q31K | 88.4
I105F | 8.95
N85Y | 78.4
W134N | 93.5
Y53G | 6.86
V142L | 65.2
T39Y | 79.5
W41K | -2.29
E64R | 84.4
E89G | -3.74
E139T | 90.1
V143H | -4.45
F47E | -17.2
D153T | 20

For quick reference, copied from above (sample 6):
Change | relative binding score [%]
N85Y | 78.4
L169M | 35.5
C72K | 56.6
D153T | 20
Q31K | 88.4
Q19F | 76.3
L29A | 44.1
T39Y | 79.5
W41K | -2.29
V142L | 65.2
S9L | 71.7
E89G | -3.74
V143H | -4.45
E139T | 90.1
Y53G | 6.86
W134N | 93.5
V76N | 32.2
Y53N | 1.89
